Experimental data from different studies.
Every numbered part comes from another study and shows a few of its results, in no order. Changes are numbered by the printed parent chain.

Set 1
Target: ABI1, truncated, D143A, DHFR fusion (Arabidopsis thaliana)
Method: DHFR PCA, deep sequencing
Matrix: yeast
Notes: methotrexate growth selection, single substitutions
Added: (+)-ABA 1.4 µM
Baseline: wild-type fitted maximum
Direction: higher = stronger binding
Parent: PYL1, truncated, DHFR fusion (Arabidopsis thaliana); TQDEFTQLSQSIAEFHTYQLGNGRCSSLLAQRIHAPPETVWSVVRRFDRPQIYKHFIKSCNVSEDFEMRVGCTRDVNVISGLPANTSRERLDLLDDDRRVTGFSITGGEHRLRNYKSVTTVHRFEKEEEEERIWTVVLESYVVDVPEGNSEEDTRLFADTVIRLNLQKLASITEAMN; partner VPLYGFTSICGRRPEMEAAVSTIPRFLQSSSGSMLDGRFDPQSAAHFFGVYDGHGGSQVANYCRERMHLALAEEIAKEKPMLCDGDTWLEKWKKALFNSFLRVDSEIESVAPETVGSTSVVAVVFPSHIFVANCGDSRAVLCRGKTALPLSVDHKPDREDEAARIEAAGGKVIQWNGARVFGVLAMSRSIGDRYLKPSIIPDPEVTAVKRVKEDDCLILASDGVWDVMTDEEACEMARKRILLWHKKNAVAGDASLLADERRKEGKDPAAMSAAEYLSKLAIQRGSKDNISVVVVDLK
Change	relative binding score
E152H	32.8%
H34W	22.3%
K126R	67.2%
D3H	42.4%
S140L	3.56%
L164D	-0.709%
R49W	0.412%
D3A	55%
V136A	8.37%
F124A	39.8%
G108A	-1.72%
E174I	-7.08%
I33D	1.41%
Q167Y	-5.52%
E152Y	25.4%

Set 2
Target: Sal-like protein 4, full length isoform B (SALL4, Homo sapiens, UniProt Q9UJQ4-2, residues 1-616)
Method: universal PBM
Molecule type: double-stranded DNA, one strand shown
Matrix: in vitro
Tested at: not given
Notes: 8-mer, flanks averaged, mean of replicates
Direction: higher = stronger binding
Construct (chain): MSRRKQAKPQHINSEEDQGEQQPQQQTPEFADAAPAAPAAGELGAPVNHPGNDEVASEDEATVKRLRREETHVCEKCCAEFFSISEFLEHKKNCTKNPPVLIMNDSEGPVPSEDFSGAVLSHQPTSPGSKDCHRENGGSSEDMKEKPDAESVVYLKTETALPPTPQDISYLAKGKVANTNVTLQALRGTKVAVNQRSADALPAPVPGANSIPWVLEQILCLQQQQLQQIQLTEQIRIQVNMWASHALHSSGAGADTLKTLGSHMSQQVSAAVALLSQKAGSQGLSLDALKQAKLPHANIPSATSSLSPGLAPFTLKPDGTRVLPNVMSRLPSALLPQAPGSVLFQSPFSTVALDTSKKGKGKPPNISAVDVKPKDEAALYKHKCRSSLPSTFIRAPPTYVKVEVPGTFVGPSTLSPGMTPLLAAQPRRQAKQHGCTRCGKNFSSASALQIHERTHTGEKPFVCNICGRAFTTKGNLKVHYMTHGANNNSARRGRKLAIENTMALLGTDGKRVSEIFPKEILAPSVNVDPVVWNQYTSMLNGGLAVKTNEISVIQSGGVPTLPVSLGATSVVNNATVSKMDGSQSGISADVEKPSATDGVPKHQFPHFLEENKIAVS
Strand	E-score
GAGTATAC	0.185
CACTACGC	-0.194
TAATAAGA	0.348
GATGACCC	-0.0511
TTAGTAAA	0.212
GCACCCCA	-0.356
CACTGGCA	-0.112
CAGTAAAA	0.249
ACAGCGCC	-0.304
ACACGAGT	-0.0259
AACCCCGC	-0.19

Set 3
Target: RING finger protein unkempt homolog, zinc fingers 1-6, GST-SBP tag (UNK, Homo sapiens, UniProt Q9C0B0, residues 30-357)
Method: RNA Bind-n-Seq
Molecule type: RNA
Matrix: in vitro
Tested at: not given
Notes: RNA with constant flanks, human and mouse sites, ends assumed
Baseline: input RNA pool
Direction: higher = stronger binding
Residues (chain): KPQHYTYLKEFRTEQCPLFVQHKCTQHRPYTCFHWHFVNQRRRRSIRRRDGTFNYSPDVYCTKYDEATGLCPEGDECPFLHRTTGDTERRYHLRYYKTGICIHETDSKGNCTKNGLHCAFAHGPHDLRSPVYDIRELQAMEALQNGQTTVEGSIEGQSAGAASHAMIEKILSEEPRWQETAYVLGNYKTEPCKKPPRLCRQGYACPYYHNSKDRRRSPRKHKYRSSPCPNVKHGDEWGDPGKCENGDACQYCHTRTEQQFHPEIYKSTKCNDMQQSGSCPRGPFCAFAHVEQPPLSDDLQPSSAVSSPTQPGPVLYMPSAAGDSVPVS
Strand	bound/input enrichment
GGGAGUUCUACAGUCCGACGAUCGCAGAUAUUGAAGUAAUAUGGUCUCAUGCGAUACAAAAAUACUUGGAAAUCCCACUGAAAGAUUUAAAGUAUUAUAGAUGUAUCUUGUUAAUUCCUGAUAUCUAUAAUAAGCAGCAUGUGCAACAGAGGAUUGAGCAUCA	0.247 ratio
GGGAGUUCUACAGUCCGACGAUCAGGCGCAAAGCAGCAAAUGUCACGUUACUCACCUCCCUGGUGGAAGGAGAAGCUGUUCACUUAGCUAGGGAUUUUGGGUACAUUUGCGAAACGGAGUUUCCCGCCAAAGCCGUCUCUGAGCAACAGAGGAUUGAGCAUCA	0.0921 ratio
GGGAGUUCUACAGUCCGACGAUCCAAGAUUUCCAAAUGUUAAGUAGAAUCUGGACUCAUCCUUGGUGUUUGCAACUGGACUAUAUCAGCAAAGAAAAUAAGGGUUAUUUUGAUGAAGAUAGUAUGGAUGAAUUUAUAGCUUCACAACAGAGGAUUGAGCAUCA	0.462 ratio
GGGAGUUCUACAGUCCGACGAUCAGCAGUGAGGAUGCCUCAACCCCUCAGUGUGUCCACACAAGAUUGACAGGAGAGGGUUCUUGCCCUCAUUCUGGAGAUGUUCAUAUCCAGAUAAACUCCAUACCUAAAGAAUGUGCAGAACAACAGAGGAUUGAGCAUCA	0.126 ratio
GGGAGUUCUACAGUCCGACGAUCAAUAUGAUAACACAAUAUUGGCCUGAUCGGGAAGCCACACCAGGGGACAUCGCUCCAUAUACUAUUCCAGAAGAAGACCGGCAUUGUAUUCGAGAAAAUAUUGUAGAAGCCAUUAUCCACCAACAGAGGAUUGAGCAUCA	0.207 ratio
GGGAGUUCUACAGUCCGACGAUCUUAAGAAGAAUGCCUCAUAUUAAACAUGUGGACCUAAGACUGAACAUACUCAGAAAGCUUAUGGCAGAUGAGGUGGACUUUGUGCAACAUGUCACUCAGCUUGACCUGCGAGACAAUAAGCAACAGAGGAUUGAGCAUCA	0.179 ratio
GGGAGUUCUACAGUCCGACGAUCAGGAUAAACUAAGCCAUUUUAUGUAUUUUAUUUUAAACCUUAUUUUGGCAGAGUAAUUCCUUAGAAUUGGAAAAGCUGUUACUUUGAAAUUACCAAUUUAUUACAAAACAUAGAAAUGUACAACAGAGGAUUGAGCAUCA	2.85 ratio
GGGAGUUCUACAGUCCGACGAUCGUCAAUCAUUUUGACAAGUCUCCUGAAAGGAACAGCUAGCAGGAACUGAAACCUUUUUCCAUUUGGUCUCGUGGCAAAGGCAGAGAUUGCUCCAGCAGCUCCACACAAAAUGAUGUGCUCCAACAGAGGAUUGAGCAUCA	0.23 ratio
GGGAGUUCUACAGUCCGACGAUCAUAAAAUUAGAAACUUAAAUUCCAAGCUAAAUUUCAGCUUUGACCCACCUAACUCCAGUGAAUAGGUGGCAGCUCAGAAACAAGGACAGCACUGCUGCUGCCAGAGCAAGCUCACAUCCACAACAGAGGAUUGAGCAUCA	7.13 ratio

Set 4
Target: RNA binding protein fox-1 homolog 2, RRM domain, GST-SBP tag (RBFOX2, Homo sapiens, UniProt O43251-10, residues 100-194)
Method: RNA Bind-n-Seq
Molecule type: RNA
Matrix: in vitro
Tested at: 365 nM
Notes: natural RNA segment, single round, ends assumed
Baseline: no-protein control
Direction: higher = stronger binding
Strand	RBNS enrichment (R)
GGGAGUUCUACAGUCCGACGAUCAUGGACCCCAGAGCUUUGGGCCCAGGGUGAGGGCAAGGGGAACUCUUCAGCCCCUUGCCUAGAGAGAUGGCCUGAUGGCCUUUUGUGCUUCCCCCCAGAGGGCAGUGGGGUGGAAUUCUCGGGUGCCAA	0.566
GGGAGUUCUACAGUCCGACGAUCAGUUUCUGAAGAUUUUAUUAUCAUAGAUACUUGUUUUGGUUUUGUGUAUCUGUACUCUCUGCAGAUGGUCCAAAAUUGUAAUGGAGUCUGUAUUAGAAGAAAAUAAGGGUUGGAAUUCUCGGGUGCCAA	1.11
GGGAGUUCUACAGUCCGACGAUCUCCCUGUGGUGGUCCUUAGGCACCAGUCUUUGUUAAACAAAACCCUUUGGCACUAUUGUGGUUUUCUAUUCUCUGUCUGAACUCUAUUCAAAAGUAUCUUUGCUCUCUUGUGGAAUUCUCGGGUGCCAA	0.797
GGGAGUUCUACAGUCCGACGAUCCUUGCUUAAUUUCUACAGGCUGUCUUGUCUUUCAUAUGCUAACCACUAUCUUAAAAUGAAAGACAAGUGCUUUUCUUUUUCUUGCUGUUUUUUAAGAUAAUUUCACCCUGUGGAAUUCUCGGGUGCCAA	0.877
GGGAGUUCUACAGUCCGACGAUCUCCGCUGCCUCCAAGCCGGACUUAGGGCUUCAAGAGGCGGGCGUGCCCUCUGGAGUCCCCUACCAUGACUGAAGGCGCCAGAGACUGGCGGUGUCUUAAGACUCCGGGCAUGGAAUUCUCGGGUGCCAA	7.14
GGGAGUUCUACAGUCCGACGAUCGGGGUAGGGCAGCCUAGCUCUUUUUGUCACCUUGCCCCGAGCCCUCUUCAGUCUUCCUGUUCACCCCUCCUCCACUCCCUUUAACCGCAAAACUAGGUGCUGUGGCCCCAUGGAAUUCUCGGGUGCCAA	0.948
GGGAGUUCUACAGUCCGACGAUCCAGUAAUUUGAAAAUGAGAUAUUAGGAAAAACCAAUUCUUCUUAAAUUUAGUUCAUCUUUCUUUAAAAGAACAUUAAAUGUAACCAUUUUGUCAGAUCCAUGUAUUUUGGUGGAAUUCUCGGGUGCCAA	0.44
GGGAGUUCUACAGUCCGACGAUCUAGACUCAAGAUCAAAACAGCAUACCUGCUAAGCUAAGAUAGAUGGUGUUGAUUCCACUGGGUUUUGAUCAAUACAAUAACAAACCUUUUUCCUUUGACAUACUCUGAAUUGGAAUUCUCGGGUGCCAA	0.447
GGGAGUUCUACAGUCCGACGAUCCUUAUCCAUAAAUAACUACAUGACAGCAUUAAAAUCUGUAGCAAAGAGAUAUAAACUCUAGAGUGAGUCUAUUGGGAAUCAGCAGAUUAUACAUACCUGGGGCAUCUUCUUGGAAUUCUCGGGUGCCAA	0.689
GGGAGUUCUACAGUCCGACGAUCGCAGGCAGACGAGGCCUUUGCUUUACAGCACUGUAUGUGUUGCACGAUGGAUCCGUGACAGCACUUUCCUGUUGCACUGAAACUCUUGGCCAUGUAGAGGAAAAGAUAUGUGGAAUUCUCGGGUGCCAA	1.24
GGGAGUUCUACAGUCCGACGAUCAAUAGGAAUUGAUAAUAGCAGUCUUAAACAUUAGUAGUGGGAUUUGGCUAUGGUCCAGACUGUGCUCCUUAUAGAGAAUUUGAUCUGCUCAGUGUGAGCGGUUUGCUGUUUGGAAUUCUCGGGUGCCAA	3.31
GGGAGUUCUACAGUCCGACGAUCUAUCUUAAAUGUCCCUGAUGAGGAGAGCAGUCAUCAAUUAAAUAUAUAAGCUCUUAAAAUGAGAAUGGAAGUGUCAGUAUAGACCCAGUGUACUUAAGUGCUGAUGACUGUGGAAUUCUCGGGUGCCAA	0.835

Set 5
Target: Interferon regulatory factor 7, full length, phosphomimetic (IRF7, Homo sapiens, UniProt Q92985, residues 1-503, S101K/S471D/S472D/S475D/S476D/S477D/S483D/S484D/S487D)
Method: protein-binding microarray
Molecule type: double-stranded DNA, one strand shown
Matrix: in vitro
Tested at: 250 nM
Notes: 60-bp whole probe
Added: salmon DNA 0.4 mg/ml
Baseline: random background probes
Direction: higher = stronger binding
Shared flanks, not repeated: GCCTAGCAC … GTCTTGATTCGCTTGACGCTGCTG
Residues (chain): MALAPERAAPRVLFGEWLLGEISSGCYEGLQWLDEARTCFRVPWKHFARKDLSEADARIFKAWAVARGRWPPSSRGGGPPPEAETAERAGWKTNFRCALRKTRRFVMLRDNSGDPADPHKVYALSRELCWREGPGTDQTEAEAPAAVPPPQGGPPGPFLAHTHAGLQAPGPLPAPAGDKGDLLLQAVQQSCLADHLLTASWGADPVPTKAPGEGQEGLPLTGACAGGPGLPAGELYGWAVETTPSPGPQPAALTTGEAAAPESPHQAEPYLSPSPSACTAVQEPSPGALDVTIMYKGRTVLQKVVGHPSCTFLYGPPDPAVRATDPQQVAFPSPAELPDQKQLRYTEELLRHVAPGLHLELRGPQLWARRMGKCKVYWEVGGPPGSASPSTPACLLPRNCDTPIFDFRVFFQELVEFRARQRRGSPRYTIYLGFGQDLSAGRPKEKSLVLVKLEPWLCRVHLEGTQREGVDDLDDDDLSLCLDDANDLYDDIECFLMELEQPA
Strand	log fluorescence [z-score]
TTGTAAATCTTTTTCCCTATGTGCTAG	0.555
GACGACTTCAGTCTCGAGACGTGCTAG	0.371
GACGGTATCCTTATACTGACGTGCTAG	-0.144
TTAGTACTGGACACTGGGTTAGTGCTA	-0.141
TTAGATATCGGGTCTCGATTAGTGCTA	0.864
GACGATTCCAGTTGCGAGACGTGCTAG	0.274
GACGGACTGGGGTTTCGGGTCGTGCTA	3.9
TCATATTTAAGGCCTATGACTGTGCTA	0.561
TTAGTACTGGACTATCGGTTAGTGCTA	0.106
GACGGTTTCGGCCTGGGGACGTGCTAG	2.88

Further values, each from its own experiment
Sequence	target	assay	test system	setting	scale	endpoint	result
PPARRRLRLSVDE	human cyclin B1	peptide binding, yeast competitive growth sequencing	peptide, Saccharomyces cerevisiae, cyclin B1-Cln2 fusion	concentration not given, RxL motif peptides	direction not given	binding enrichment score	0.182

Repeated from above (set 5):
Strand	log fluorescence [z-score]
GACGGACTGGGGTTTCGGGTCGTGCTA	3.9
GACGGTTTCGGCCTGGGGACGTGCTAG	2.88
TTAGTACTGGACACTGGGTTAGTGCTA	-0.141
TTAGATATCGGGTCTCGATTAGTGCTA	0.864
